# Measured values pooled from the literature.
# Numbered parts are unrelated; each lists some results of a single study. Substitutions count along the parent as printed.

# Study 1
# Target: Fragile X messenger ribonucleoprotein 1, C-terminal low-complexity region (Fmr1, Mus musculus, UniProt P35922)
# Method: RNA Bind-n-Seq
# Molecule type: RNA
# Sample: in vitro
# Concentration: 200 nM
# Setting: whole 134-nt RNA, ends assumed
# Added: 150 mM KCl
# Baseline: input library
# Direction: higher = stronger binding
# Shared flanks, not repeated: GGGAGUUCUACAGUCCGACGAUC … UGGAAUUCUCGGGUGUCAAGG
Strand,log2 enrichment
GGACACAGCUUGGGCUAUGGCUUUGUGAACUACGUGACCGCGAAGGAUGCAGAGAGAGCGAUCAACACGCUGAACGGCUUGAGGCUCCAG,-1.73
GUCCUGUGCUACACAUCGUAUGUACCGAAUCGGGGUUUUUGGGGUGGGGAAAAAGGGGAAAGUAUUAUGUUACGCCGUUCGGAUCUGCAC,0.569
CUCAAGUCCUGUGCUACACAUCGUAUGUACCGAAUCGGUUUGGUUUGGUUUGGGAAAGUAUUAUGUUACGCCGUUCGGAUCUGCACUUCC,-0.465
ACCAUGCAGGUGGGCAUCUUUGGGAAGUGGGGCAAGGGGGGGAUAGGGAGGGGGGUAACACUUUGGGAACAAAUGGUCCCAGGUCGUUUC,0.716
CCUCAAGUCCUGUGCUACACAUCGUAUGUACCGAAUCGGGGUGGGUGGUGGGGAAAGUAUUAUGUUACGCCGUUCGGAUCUGCACUUCCA,1.21
UGCCUCGGGAGGAGCUGUUUGUGACAUCCAAGCUGUGGAACACCAAGCACCACCCCGAGGAUGUGGAGCCUGCCCUCCGGAAGACUCUGG,-1.56
CCUGUGCUACACAUCGUAUGUACCGAAUCGGGAAAAAAGGGAAAAAAGGGAAAAAAGGGGAAAGUAUUAUGUUACGCCGUUCGGAUCUGC,-0.523
AAGUCCUGUGCUACACAUCGUAUGUACCGAAUCGGGGAAAGGGGAAAGGGGAGGGGAAAGUAUUAUGUUACGCCGUUCGGAUCUGCACUU,0.38
AGUCCUGUGCUACACAUCGUAUGUACCGAAUCGGGGUUUUGGGUUUUGGGUUUUGGGGAAAGUAUUAUGUUACGCCGUUCGGAUCUGCAC,0.823

# Study 2
# Target: ABI1, truncated, D143A, DHFR fusion (Arabidopsis thaliana)
# Method: DHFR PCA, deep sequencing
# Sample: yeast
# Setting: methotrexate growth selection, single substitutions
# Added: (+)-ABA 710 µM
# Baseline: wild-type fitted maximum
# Direction: higher = stronger binding
# Starting sequence: PYL1, truncated, DHFR fusion (Arabidopsis thaliana); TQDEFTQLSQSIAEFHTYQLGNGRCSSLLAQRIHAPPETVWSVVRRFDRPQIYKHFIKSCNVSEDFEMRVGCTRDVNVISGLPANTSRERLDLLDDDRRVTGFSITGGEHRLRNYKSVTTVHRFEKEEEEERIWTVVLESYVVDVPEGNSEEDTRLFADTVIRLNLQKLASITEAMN; partner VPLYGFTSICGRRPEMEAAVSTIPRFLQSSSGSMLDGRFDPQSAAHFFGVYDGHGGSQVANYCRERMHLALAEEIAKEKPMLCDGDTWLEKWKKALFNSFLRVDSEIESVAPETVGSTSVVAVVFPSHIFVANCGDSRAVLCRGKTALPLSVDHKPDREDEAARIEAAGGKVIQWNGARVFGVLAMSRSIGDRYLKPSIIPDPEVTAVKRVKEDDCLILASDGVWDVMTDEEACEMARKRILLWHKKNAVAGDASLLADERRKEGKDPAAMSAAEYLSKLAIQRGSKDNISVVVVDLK
Substitution,relative binding score
R113S,107%
V40M,-30%
K58C,88.8%
V44H,-5.94%
I133R,109%
A35S,97.6%
T120C,39.1%
E89L,-14.4%
D153W,-1.28%
T17H,102%
V43M,96.8%
F56T,62.8%
V62Q,80.8%
D153H,94.1%
E109T,108%
N61L,99.8%
D159W,21.3%

# Study 3
# Target: OGT, full length, His-tagged (human)
# Method: phage display, sequencing
# Sample: in vitro
# Concentration: 1 µg OGT
# Setting: single substitutions, 15-mer displayed peptide, unchanged parent 16.7
# Baseline: input library
# Direction: higher = stronger binding
# Starting sequence: peptide; NSEYMPQYQIIFAHQ
Substitution,fold enrichment [fold]
NSTYMPQYQIIFAHQ [E3T],17
NAEYMPQYQIIFAHQ [S2A],18.2
NSEYMPQYQIIFAHD [Q15D],15
NSEYMPQYQIIFDHQ [A13D],17.4
NSEYMPQYQWIFAHQ [I10W],0.813
NSEYMPQYQISFAHQ [I11S],5.41
NSEYMPDYQIIFAHQ [Q7D],0.914
NKEYMPQYQIIFAHQ [S2K],14.2
NSEYMPQYQYIFAHQ [I10Y],0.859
NSEYMPQYQIIFAHH [Q15H],13.4
NSEPMPQYQIIFAHQ [Y4P],1.13
NSEYMPQYQVIFAHQ [I10V],0.833
NSEYHPQYQIIFAHQ [M5H],7.95
NSEYMPQYQIIYAHQ [F12Y],18.8
NSEYMPIYQIIFAHQ [Q7I],5.85

# Study 4
# Target: CCNA2, cyclin fold, Cln2 fusion (human)
# Method: yeast growth competition, sequencing
# Sample: yeast
# Setting: strong parent motif
# Baseline: not given
# Direction: higher = stronger binding
# Starting sequence: WEE1 docking peptide (human); HKTFRKLRLFDTP
Substitution,normalised enrichment score
F4P,1.31
R5Y,0.333
R8A,1.24
R8C,2.11
P13D,1.53
T3A,1.26
F10Y,0.164
L7C,2.44
T12I,1.71
F4Q,0.813
R8S,1.93
D11M,1.52
T12G,2.07
R5T,1.37
K2G,1.89
F10K,1.21
F10T,1.11
K2E,1.2
L9S,1.34
P13G,0.516
K2Q,1.43
F10N,0.67
F4K,1.69
T3S,-0.458
P13H,0.544
